Published values of several laboratories.
Compare with care: the assays were run in different laboratories. ± gives the spread as reported. Converted amounts (≈) assume the structure as drawn.

Compound | assay | test system | conditions | how to read | quantity | value
C/C=C/CNC(=N)NCCCCCCCCN1CCCc2ccccc2COc2ccccc2CNC(=N)NC1=O | PAMPA | egg phosphatidylcholine in dodecane | 500 µM, 5 h, pH 7.4, room temperature | – | membrane retention | 55.3%
O=C(NCCCN(CCCCN(CCCNC(=O)c1cccc(=O)n1[O-])C(=O)c1cccc(=O)n1[O-])C(=O)c1cccc(=O)n1[O-])c1cccc(=O)n1[O-].[89Zr+4] | radio-TLC | PBS | 1 d, pH 7.4, 37 °C, with: Gd^3+ 10-fold excess | – | intact complex | 97.8 ± 3.1%
CSCOC1C(=O)C2(C)C(OCSC)CC3OCC3(OC(C)=O)C2C(OC(=O)c2ccccc2)C2(O)CC(OC(=O)C(O)C(C=C(C)C)NC(=O)OC(C)(C)C)C(C)=C1C2(C)C (stereo not shown) | – | female Sprague-Dawley rat, plasma | intravenous, 1 mg/kg | – | clearance | 105 mL/min/kg
COCC1CN(C2CCN(c3cc(OC)c(Nc4ncc(Br)c(Nc5ccc6c(c5P(C)(C)=O)OCCO6)n4)cc3C)CC2)C1 | – | human | oral, dose not given | relative to: patients | grade ≥3 treatment-related adverse events | 22.2%
COc1ccc(NC(C)(C)C(=O)Nc2ccc(F)c(Cl)c2)cc1S(=O)(=O)N1CCOCC1 | – | water | – | – | kinetic solubility | 219 µM (≈ 106 µg/mL)
CC/C=C\C/C=C\C/C=C\C/C=C\C/C=C\CCCCOC(CC)C(=O)O (stereo not shown) | [14C] label | male Wistar rat, whole blood | oral, 100 mg/kg, 4 h | – | radioactivity concentration | 60.9 µg equiv/g
Cc1ccc(OCC(=O)N(Cc2cccs2)c2ccn[nH]2)cc1 | – | male beagle dog, plasma | oral, 10 mg/kg, single dose | – | Cmax | 33.7 ng/mL
CCCC[C@H](NC(=O)CNC(=O)CNC(=O)CN1CCN(CC(=O)O)CCN(CC(=O)O)CC1)C(=O)N[C@H]1CC(=O)NCCCC[C@@H](C(N)=O)NC(=O)[C@H](Cc2c[nH]c3ccccc23)NC(=O)[C@H](CCCNC(=N)N)NC(=O)[C@@H](Cc2ccccc2)NC(=O)[C@H](Cc2c[nH]cn2)NC1=O [copper-64 labelled] | – | female C57 mouse, B16/F1 melanoma, spleen | intravenous, 0.037 MBq, 0.5 h | – | tissue uptake | 0.51 ± 0.07 %ID/g
COc1cc(NC(C)=O)c2c(c1O)-c1c(OC)c(OC)cc3c1C(C2)N(C)CC3 (stereo not shown) | – | rat brain homogenate | 0.5 µg/mL, 40 d, -20 °C, long-term storage | – | remaining compound | 110 ± 2.7%
Cc1cc2c(cc1C1(c3ncc(C(=O)O)cn3)CC1)C(C)(C)CCC2(C)C | – | Sprague-Dawley rat, male, plasma | oral, 100 mg/kg, 24 h, sesame oil vehicle | – | LDL level | 4 ± 1.2 mg/dL
CCCC(CCC)NC(=O)c1ccc(OS(=O)(=O)O)c(OC)c1 | – | female Sprague-Dawley rats, plasma | oral, 200 mg/kg of parent drug | relative to: 200 over 20 mg/kg dose | AUC(0-last) ratio | 6.1
C[C@]12CC[C@@H]3c4ccc(OCC(=O)N[C@@H](CCCCNC(=O)CN5CCN(CC(=O)[O-])CCN(CC(=O)[O-])CCN(CC(=O)[O-])CC5)C(=O)O)cc4CC[C@H]3[C@@H]1CCC2=O.[68Ga+3] | – | female Balb/c mice | 45 min | – | liver uptake | 2.9 ± 0.58 %IA/g
Cc1ccccc1/N=N/c1ccc(/N=N/c2c(O)ccc3ccccc23)c(C)c1 | – | rat whole blood extract | 0.2 µg/L, 30 days, -20 °C, long-term storage | – | measured concentration | 0.189 µg/L
COc1cc(N(C)CCN(C)C)c(NC(=O)CCSCC(NC(C)=O)C(=O)O)cc1Nc1nccc(-c2cn(C3CC3)c3ccccc23)n1 (stereo not shown) | – | human, pooled urine | 0 to 48 h | relative to: dose | excretion in urine | 0.01%
COC(=O)C1OC(Oc2c(-c3ccccc3)oc3cc(O)c(O)c(O)c3c2=O)C(O)C(O)C1O (stereo not shown) | – | BALB/c mouse, kidney | 2 mg/kg | – | organ weight | 1.37 ± 0.5 g
CC[C@H](C)[C@H](NC(=O)CNC(=O)CNC(=O)c1ccc2c(c1)C(=O)OC21c2ccc(O)cc2Oc2cc(O)ccc21)C(=O)N[C@@H](Cc1ccc(O)cc1)C(=O)N[C@@H](C)C(=O)N(C)CC(=O)N1CCC[C@H]1C(=O)N(C)[C@@H](Cc1ccccc1)C(=O)N[C@@H](CCCCN)C(=O)N[C@@H](CCCCN)C(=O)N[C@@H](CCCCN)C(=O)O | CE-LIF | Baf/BCR-ABL cytosolic lysate (mouse) | 60 min, Ala-sarcosine cleavage | – | 5-residue fragment share | 17 ± 0.6%
CN(C)S(=O)(=O)c1cc(C(=O)O)ccc1NCCCCCCCC(F)(F)F | – | WT and Ts65Dn mice | ip, 0.2 mg/kg daily, 4 weeks | – | organ weights | no effect
COc1cc2c(cc1OC)CN(CCCCn1ccc3cc(OCC[18F])ccc31)C2 | – | male ICR mice | intravenous, 15 min post-injection | – | liver uptake | 14.7 ± 2.01 %ID/g
O=C(C1CC1)N1CCC=C(c2cc3c(Nc4cc5ncsc5cc4F)ncnc3s2)C1 | – | human liver microsomes | 1 µM | – | intrinsic clearance | < 12 mL/min/g protein
C[C@H]1C[C@@H](Oc2cccc(F)n2)CCN1Cc1cnc(N[11C](C)=O)s1 | – | human brain homogenate | at least 30 min, room temperature | – | radioligand stability | 99.2%
CC(=O)[CH](C(C)=O)[Pt-2]1([S+](C)C)[O]C(C)=CC(C)=[O+]1 (stereo not shown) | refers to: platinum | rat | iv, dose not given, 24 h | – | remaining in circulation | ~26%
CC(C)CCCC(C)CCCC(C)CCO[C@@H]1O[C@H](CO)[C@@H](O[C@H]2O[C@H](CO)[C@@H](O)[C@H](O)[C@H]2O)[C@H](O)[C@H]1O (stereo partly shown) | drop shape tensiometry | water | room temperature | – | surface tension at CMC | 28.3 mN/m
COCCOCCOCCOCCOCCOCCOCCOCCOCCOCCOCCOCCOCCOCCOCCOCCOCCOCCOCCOCCOCCOCCNC(=O)CCC1(Cc2ccccc2)c2ccccc2-c2ccc(-c3sc(-c4c5c(c(-c6sc(-c7ccc8c(c7)C(CCC(=O)NCCOCCOCCOCCOCCOCCOCCOCCOCCOCCOCCOCCOCCOCCOCCOCCOCCOCCOCCOCCOCCOCCOC)(Cc7ccccc7)c7ccccc7-8)c7c6OCCO7)c6nsnc46)N=S=N5)c4c3OCCO4)cc21 (stereo not shown) | – | KM mice, female, faeces | intravenous, dose not given, 24 h | relative to: dose | faecal excretion | ~80%

Compound | assay | test system | conditions | how to read | quantity | value
CN1CCC[C@]1(C)/C=C/S(=O)(=O)NC(=O)Nc1c2c(cc3c1CCC3)CCC2 | – | human | oral, up to 100 mg twice daily, 14 days | – | tolerability | not toxic
Cn1c(=O)oc2ccc(-c3ccc(CC(C#N)NC(=O)C4CNCCCO4)c(F)c3)cc21 (stereo not shown) | – | human | oral, 10 mg once daily, treatment-related AE, multiple ascending dose | – | triglycerides increased incidence | 33.3%
Oc1ccc2ccccc2c1/N=N/c1ccccc1 | – | Sprague-Dawley rats both sexes, whole blood | oral, 50 mg/kg | – | MRT(0-inf) | 72.5 min
Cc1ccc(-c2ccc(-c3cc4sccc4o3)cn2)nc1 | – | dioxane | with: quinine bisulfate reference | – | fluorescence quantum yield | 0.5
CC(C)C[C@@H](NC(=O)[C@H](NC(=O)[C@H]1CCCN1)[C@H](C)O)C(=O)N[C@H](Cc1c[nH]cn1)C(=O)N[C@@H](C(=O)N[C@H](Cc1c[nH]cn1)C(=O)N[C@H](CC(N)=O)C(=O)N[C@H](CCCNC(=N)N)C(=O)N[C@H](CCCNC(=N)N)C(=O)N[C@H](CCCNC(=N)N)C(=O)N[C@H](CCCNC(=N)N)C(=O)N[C@H](CCCNC(=N)N)C(N)=O)[C@H](C)O | – | Beagle dog, CSF | intravenous, 3 mg/kg, single dose | – | AUC(0-t) | 961 ± 373 ng·h/mL
[11CH3]Nc1ccc(-c2nc3ccc(O)cc3o2)cn1 | – | AD patients and controls, arterial plasma | 5 min | – | radioligand metabolised | ~50%
COc1cc2ncnc(Oc3ccc4c(C(N)=O)c(C)oc4c3)c2cc1OC | refers to: Cmax | human, moderate renal impairment | oral | relative to: normal renal function | decrease in exposure | ~32%
CC(=O)O[C@@H]1[C@@H](OC(C)=O)[C@H](Sc2sc(C(=O)c3ccc(Br)cc3)c(N)c2-c2nc3ccccc3s2)OC[C@H]1OC(C)=O | – | DMEM | 72 h | – | maximum nontoxic concentration | 100 µg/mL
N=C(N)NCCC[C@@H]1NC(=O)[C@H](Cc2c[nH]c3ccccc23)NC(=O)[C@@H](CC2CCCCC2)NC(=O)[C@@H]2CCCN2C(=O)[C@@H](NC(=O)CCc2ccccc2)CCCNC1=O | – | C57BL/6J mice, brain | subcutaneous, 1 mg/kg | – | Tmax | 30.2 min
C=C(c1cc(F)c(C(=O)O)c(F)c1)c1cc2c(cc1C)C(C)(C)CCC2(C)C | – | Sprague-Dawley rat, male, plasma | oral, 100 mg/kg, 1 h, sesame oil vehicle | – | LDL level | 27 ± 6.1 mg/dL
C[Si](C)(C)C[C@H](CN)CC(=O)O | neuromuscular coordination | Wistar rat male | oral, 300 mg/kg, 3 h | – | performance time | 178 s
Cc1noc(C)c1Cn1cc(N2C(=O)CN(Cc3cccc(O[C@@H]4O[C@H](C(=O)O)[C@@H](O)[C@H](O)[C@H]4O)c3)C2=O)cn1 | – | rat Sprague-Dawley male, plasma | oral, 100 mg/kg of parent drug | – | AUC(0-last) | 44700 ng·h/mL
OCc1[nH]nc2c1N=C(c1ccccc1Cl)c1cnc(N3CCOCC3)cc1N2 | – | human, feces | oral, 10 mg, 0 to 192 h | relative to: dose | excretion in feces | 3%
COCCOCCOCCOc1ccc(/C=C/C2=[N+]3C(=C(c4cc(OC)cc(OC)c4)c4c(C)c(I)c(/C=C/c5ccc(OCCOCCOCCOC)cc5)n4[B-]3(F)F)C(C)=C2I)cc1 | – | DMSO | – | – | absorption maximum | 666 nm
CC(C)[C@H](NC(=O)[C@@H]1CCCN1C(=O)[C@H](CCCNC(=N)N)NC(=O)[C@H](CS)NC(=O)[C@H](Cc1c[nH]c2ccccc12)NC(=O)[C@H](CCCNC(=N)N)NC(=O)[C@@H](Cc1ccccc1)NC(=O)[C@H](Cc1c[nH]cn1)NC(=O)[C@H](CCC(=O)O)NC(=O)[C@H](CS)NC(=O)[C@H](CS)NC(=O)CNC(=O)[C@@H]1CC(=O)N[C@@H](CCCNC(=N)N)C(=O)NCC(=O)N[C@@H](CC(=O)O)C(=O)N[C@H](Cc2ccc(O)cc2)C(=O)N1)C(N)=O [technetium-99m labelled] | – | C57 mouse, female, B16/F1 melanoma | intravenous, 0.037 MBq, 2 h | relative to: tumour over muscle | tumour to tissue ratio | 20.2
O=C(O)C1CN(Cc2ccc(-c3noc(-c4ccc(OCC[18F])c(C(F)(F)F)c4)n3)cc2)C1 | – | rat, pancreas | intravenous, 30 min | – | tracer uptake | 0.32 %ID/g
C[N+](C)(C)C[C@@H](O)CC(=O)O.O=C([O-])[C@H](O)Cc1ccccc1 | – | water | concentration not given | – | pH | 3.96 ± 0.3
NCC(=O)N1CCC[C@H]1C(=O)N1C[C@H](O)C[C@H]1C(=O)O | – | – | 40 °C, MAH complex, ionic strength 0.15, with: Fe(III) | – | log β | 21.5
O=c1nc(NO)ccn1[C@@H]1O[C@H](CO)[C@@H](O)[C@H]1O | Western blot, refers to: CYP1A2 | rat, normal, liver | oral, 80 mg/kg twice daily, 5 days | relative to: control group | protein level | 0.6 fold
C[Si]1(C[C@@H](CN)CC(=O)O)CCCC1 | neuromuscular coordination | Wistar rat male | oral, 300 mg/kg, 1 h | – | performance time | 180 s
O=C(NC1CC1)N1CCC=C(c2cc3c(Nc4cc5ncsc5cc4F)ncnc3s2)C1 | – | human liver microsomes | 1 µM | – | intrinsic clearance | < 12 mL/min/g protein
OCc1cn(Cc2ccc(-c3noc(-c4ccc(OCC[18F])c(C(F)(F)F)c4)n3)cc2)nn1 | – | rat, heart | intravenous, 30 min | – | tracer uptake | 1.19 %ID/g
Cc1ccc(O)c2c3c(nn12)CCC(C)(NC(=O)c1ccc(-n2cnc4cc(C(=O)O)ccc42)cc1Cl)C3 (stereo not shown) | linear PK/PD model, refers to: cuticle bleeding time | Sprague Dawley rat, male | intravenous | – | slope | 5.93
